Published values collected from several papers.
A part holds a random share of what one study measured.
Chain of UniProt P10721 (whole entry, unmodified, looked up): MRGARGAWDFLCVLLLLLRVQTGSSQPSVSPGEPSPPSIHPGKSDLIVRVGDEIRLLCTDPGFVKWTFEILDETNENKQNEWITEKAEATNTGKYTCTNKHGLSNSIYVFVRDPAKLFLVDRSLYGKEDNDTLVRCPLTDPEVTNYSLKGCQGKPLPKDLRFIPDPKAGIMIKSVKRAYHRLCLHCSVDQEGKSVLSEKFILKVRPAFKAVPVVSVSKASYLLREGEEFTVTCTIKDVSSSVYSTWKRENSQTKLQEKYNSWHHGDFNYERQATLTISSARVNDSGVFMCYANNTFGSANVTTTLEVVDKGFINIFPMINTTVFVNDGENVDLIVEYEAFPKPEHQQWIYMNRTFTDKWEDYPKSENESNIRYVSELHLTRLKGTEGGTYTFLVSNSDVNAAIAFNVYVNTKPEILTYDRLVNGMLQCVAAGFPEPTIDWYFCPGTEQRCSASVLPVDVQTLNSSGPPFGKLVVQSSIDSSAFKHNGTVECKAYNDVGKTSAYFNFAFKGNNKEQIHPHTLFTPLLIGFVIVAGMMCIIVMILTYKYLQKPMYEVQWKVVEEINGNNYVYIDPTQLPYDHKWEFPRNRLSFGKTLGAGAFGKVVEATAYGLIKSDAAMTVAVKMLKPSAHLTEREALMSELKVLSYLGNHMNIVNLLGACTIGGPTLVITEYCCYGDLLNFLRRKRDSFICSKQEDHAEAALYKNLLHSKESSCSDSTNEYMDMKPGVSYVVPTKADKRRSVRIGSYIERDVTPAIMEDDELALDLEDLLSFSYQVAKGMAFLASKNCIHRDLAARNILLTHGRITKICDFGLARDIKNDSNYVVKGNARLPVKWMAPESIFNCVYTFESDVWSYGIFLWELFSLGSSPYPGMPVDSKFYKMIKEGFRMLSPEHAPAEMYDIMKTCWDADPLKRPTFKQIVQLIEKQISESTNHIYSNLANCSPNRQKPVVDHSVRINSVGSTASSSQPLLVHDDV
Chain of UniProt Q9NYY3 (whole entry, looked up): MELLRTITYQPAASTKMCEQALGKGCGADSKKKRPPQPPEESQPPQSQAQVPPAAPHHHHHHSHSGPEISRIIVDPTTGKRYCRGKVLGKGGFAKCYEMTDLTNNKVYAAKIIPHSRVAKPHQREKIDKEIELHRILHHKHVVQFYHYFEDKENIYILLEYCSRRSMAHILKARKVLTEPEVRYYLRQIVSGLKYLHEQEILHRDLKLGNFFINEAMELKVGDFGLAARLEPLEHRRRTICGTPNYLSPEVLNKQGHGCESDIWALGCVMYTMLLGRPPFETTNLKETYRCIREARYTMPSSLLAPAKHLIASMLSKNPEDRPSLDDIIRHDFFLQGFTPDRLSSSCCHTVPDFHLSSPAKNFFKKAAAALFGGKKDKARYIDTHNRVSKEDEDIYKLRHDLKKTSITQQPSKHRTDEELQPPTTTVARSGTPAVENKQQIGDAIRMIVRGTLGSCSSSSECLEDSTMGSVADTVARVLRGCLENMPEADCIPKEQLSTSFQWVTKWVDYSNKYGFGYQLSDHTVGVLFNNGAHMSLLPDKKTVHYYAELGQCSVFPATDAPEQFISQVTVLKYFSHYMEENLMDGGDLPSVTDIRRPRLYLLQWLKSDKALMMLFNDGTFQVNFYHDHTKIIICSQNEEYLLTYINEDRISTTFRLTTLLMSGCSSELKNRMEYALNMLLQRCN
Chain of UniProt Q05655 (whole entry, looked up): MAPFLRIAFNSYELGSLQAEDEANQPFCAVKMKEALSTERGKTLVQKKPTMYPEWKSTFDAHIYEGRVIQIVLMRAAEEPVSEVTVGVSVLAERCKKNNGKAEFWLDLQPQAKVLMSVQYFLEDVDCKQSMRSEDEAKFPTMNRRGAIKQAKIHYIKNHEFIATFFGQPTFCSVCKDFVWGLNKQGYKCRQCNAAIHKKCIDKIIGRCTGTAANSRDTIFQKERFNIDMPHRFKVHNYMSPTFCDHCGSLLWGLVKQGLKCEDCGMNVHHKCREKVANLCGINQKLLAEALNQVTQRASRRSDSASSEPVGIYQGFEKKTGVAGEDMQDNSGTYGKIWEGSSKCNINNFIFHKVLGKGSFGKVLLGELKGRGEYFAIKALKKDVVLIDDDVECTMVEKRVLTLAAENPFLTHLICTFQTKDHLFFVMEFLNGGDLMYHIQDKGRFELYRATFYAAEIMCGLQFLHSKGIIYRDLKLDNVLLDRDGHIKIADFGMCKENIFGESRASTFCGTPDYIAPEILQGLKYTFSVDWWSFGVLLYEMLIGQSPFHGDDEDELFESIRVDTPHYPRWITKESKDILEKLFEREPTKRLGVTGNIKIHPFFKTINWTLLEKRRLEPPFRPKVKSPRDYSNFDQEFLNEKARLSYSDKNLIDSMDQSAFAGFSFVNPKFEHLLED

Study 1 — read-out: cell-free assay; method: competition with immobilised ligand; concentration: 1 µM
Compound: Cc1cc(-n2nc(Cc3cc(F)cc(C(F)(F)F)c3)nc2C)ccc1C(N)=O
Tyrosine-protein kinase ABL1, non-phosphorylated (ABL1, Homo sapiens, UniProt P00519) — remaining binding: 97%.
It gave 86% for remaining binding (Epithelial discoidin domain-containing receptor 1 (DDR1, Homo sapiens, UniProt Q08345)).
Serine/threonine-protein kinase PAK 2 (PAK2, Homo sapiens, UniProt Q13177) — remaining binding: 75%.
Serine/threonine-protein kinase TAO1 (TAOK1, Homo sapiens, UniProt Q7L7X3) — remaining binding: 91%.
It gave 100% for remaining binding (Serine/threonine-protein kinase NLK (NLK, Homo sapiens, UniProt Q9UBE8)).
It gave 94% for remaining binding (RAC-alpha serine/threonine-protein kinase (AKT1, Homo sapiens, UniProt P31749)).
Serine/threonine-protein kinase LATS2 (LATS2, Homo sapiens, UniProt Q9NRM7) — remaining binding: 100%.
It gave 100% for remaining binding (Mast/stem cell growth factor receptor Kit (KIT, Homo sapiens, UniProt P10721, T670I/V559D)).
It gave 88% for remaining binding (Protein kinase C delta type (PRKCD, Homo sapiens, UniProt Q05655)).
Epidermal growth factor receptor (EGFR, Homo sapiens, UniProt P00533, L861Q) — remaining binding: 100%.
The remaining binding was 97% (Ephrin type-B receptor 1 (EPHB1, Homo sapiens, UniProt P54762)).
For 1-phosphatidylinositol 3-phosphate 5-kinase (PIKFYVE, Homo sapiens, UniProt Q9Y2I7): remaining binding read 70%.
It gave 100% for remaining binding (Serine/threonine-protein kinase N1 (PKN1, Homo sapiens, UniProt Q16512)).
For Serine/threonine-protein kinase Nek10 (NEK10, Homo sapiens, UniProt Q6ZWH5): remaining binding read 100%.
For Mitogen-activated protein kinase kinase kinase 11 (MAP3K11, Homo sapiens, UniProt Q16584): remaining binding read 84%.
The remaining binding was 100% (Rho-associated protein kinase 1 (ROCK1, Homo sapiens, UniProt Q13464)).
Receptor-interacting serine/threonine-protein kinase 1 (RIPK1, Homo sapiens, UniProt Q13546) — remaining binding: 90%.
For TRAF2 and NCK-interacting protein kinase (TNIK, Homo sapiens, UniProt Q9UKE5): remaining binding read 100%.
The remaining binding was 100% (Tyrosine-protein kinase ABL1, phosphorylated (ABL1, Homo sapiens, UniProt P00519, M351T)).
For Serine/threonine-protein kinase DCLK3 (DCLK3, Homo sapiens, UniProt Q9C098): remaining binding read 94%.
For Mast/stem cell growth factor receptor Kit (KIT, Homo sapiens, UniProt P10721, D816V): remaining binding read 100%.
For Serine/threonine-protein kinase PLK2 (PLK2, Homo sapiens, UniProt Q9NYY3): remaining binding read 100%.
Phosphatidylinositol 4,5-bisphosphate 3-kinase catalytic subunit alpha isoform (PIK3CA, Homo sapiens, UniProt P42336, H1047Y) — remaining binding: 78%.
The remaining binding was 91% (Uncharacterized serine/threonine-protein kinase SBK3 (SBK3, Homo sapiens, UniProt P0C264)).
The remaining binding was 100% (Cyclin-dependent kinase-like 5 (CDKL5, Homo sapiens, UniProt O76039)).

Study 2 — concentration: 1 µM
Structure (SMILES): C=CC(=O)N1CCC([C@@H]2CCNc3c(C(N)=O)c(-c4ccc(Oc5ccccc5)cc4)nn32)CC1
Protein kinase C epsilon type (PRKCE, Homo sapiens, UniProt Q02156); enzyme activity, inhibitor — inhibition: 17%.
TRAF2 and NCK-interacting protein kinase (TNIK, Homo sapiens, UniProt Q9UKE5); enzyme activity, inhibitor — inhibition: 17%.
Bone morphogenetic protein receptor type-1A (BMPR1A, Homo sapiens, UniProt P36894); enzyme activity, inhibitor — inhibition: 5%.
Tyrosine-protein kinase ABL1, phosphorylated (ABL1, Homo sapiens, UniProt P00519, E255K); enzyme activity, inhibitor — inhibition: 15%.
For Megakaryocyte-associated tyrosine-protein kinase (MATK, Homo sapiens, UniProt P42679); enzyme activity, inhibitor: inhibition read 11%.
Proto-oncogene tyrosine-protein kinase ROS (ROS1, Homo sapiens, UniProt P08922); enzyme activity, inhibitor — inhibition: 0%.
Ephrin type-A receptor 8 (EPHA8, Homo sapiens, UniProt P29322); cell-free assay — inhibition: 10%.
The inhibition was 0% (Proto-oncogene tyrosine-protein kinase receptor Ret (RET, Homo sapiens, UniProt P07949); enzyme activity, inhibitor).
The inhibition was 0% (Serine/threonine-protein kinase 35 (STK35, Homo sapiens, UniProt Q8TDR2); enzyme activity, inhibitor).
For Mitogen-activated protein kinase kinase kinase 9 (MAP3K9, Homo sapiens, UniProt P80192); enzyme activity, inhibitor: inhibition read 13%.
For Mitogen-activated protein kinase kinase kinase 14 (MAP3K14, Homo sapiens, UniProt Q99558); enzyme activity, inhibitor: inhibition read 0%.
For Serine/threonine-protein kinase Nek9 (NEK9, Homo sapiens, UniProt Q8TD19); enzyme activity, inhibitor: inhibition read 14%.
The inhibition was 25% (LIM domain kinase 1 (LIMK1, Homo sapiens, UniProt P53667); enzyme activity, inhibitor).
The inhibition was 0% (Non-receptor tyrosine-protein kinase TYK2, JH2 pseudokinase domain (TYK2, Homo sapiens, UniProt P29597); inhibitor).

Study 3 — SMILES: CCC(=O)Nc1ccc2ncnc(Nc3cccc(Br)c3)c2c1; read-out: enzyme activity; action: inhibitor; concentration: 0.5 µM; relative to: control
The remaining activity was 106% (Protein kinase C iota type (PRKCI, Homo sapiens, UniProt P41743)).
Mitogen-activated protein kinase 12 (MAPK12, Homo sapiens, UniProt P53778) — remaining activity: 103%.
The remaining activity was 82.6% (Tyrosine-protein kinase Lyn (LYN, Homo sapiens, UniProt P07948)).
Serine/threonine-protein kinase WNK2 (WNK2, Homo sapiens, UniProt Q9Y3S1) — remaining activity: 107%.
It gave 90.5% for remaining activity (Mitogen-activated protein kinase kinase kinase kinase 2 (MAP4K2, Homo sapiens, UniProt Q12851)).
Serine/threonine-protein kinase Chk1 (CHEK1, Homo sapiens, UniProt O14757) — remaining activity: 114%.
The remaining activity was 94.4% (RAC-gamma serine/threonine-protein kinase (AKT3, Homo sapiens, UniProt Q9Y243)).
Cyclin-dependent kinase 9, with cyclin T1 (CDK9, Homo sapiens, UniProt P50750) — remaining activity: 93.7%.
For cGMP-dependent protein kinase 1 (PRKG1, Homo sapiens, UniProt Q13976): remaining activity read 101%.
For Casein kinase I isoform alpha (CSNK1A1, Homo sapiens, UniProt P48729): remaining activity read 97%.
The remaining activity was 106% (Mitogen-activated protein kinase 13 (MAPK13, Homo sapiens, UniProt O15264)).
Interleukin-1 receptor-associated kinase 4 (IRAK4, Homo sapiens, UniProt Q9NWZ3) — remaining activity: 79.8%.
The remaining activity was 91.2% (Mitogen-activated protein kinase kinase kinase 10 (MAP3K10, Homo sapiens, UniProt Q02779)).
For Tyrosine-protein kinase BTK (BTK, Homo sapiens, UniProt Q06187): remaining activity read 89.4%.
Serine/threonine-protein kinase Nek4 (NEK4, Homo sapiens, UniProt P51957) — remaining activity: 94.7%.
For MAP kinase-interacting serine/threonine-protein kinase 2 (MKNK2, Homo sapiens, UniProt Q9HBH9): remaining activity read 55.6%.
It gave 93.8% for remaining activity (Protein kinase C delta type (PRKCD, Homo sapiens, UniProt Q05655)).
For Dual specificity mitogen-activated protein kinase kinase 6 (MAP2K6, Homo sapiens, UniProt P52564): remaining activity read 94.5%.
The remaining activity was 101% (Ephrin type-A receptor 5 (EPHA5, Homo sapiens, UniProt P54756)).
The remaining activity was 108% (Serine/threonine-protein kinase PLK2 (PLK2, Homo sapiens, UniProt Q9NYY3)).
It gave 92.4% for remaining activity (Leucine-rich repeat serine/threonine-protein kinase 2 (LRRK2, Homo sapiens, UniProt Q5S007)).
For Serine/threonine-protein kinase 38 (STK38, Homo sapiens, UniProt Q15208): remaining activity read 100%.
For Casein kinase II subunit alpha (CSNK2A1, Homo sapiens, UniProt P68400): remaining activity read 99%.
Mast/stem cell growth factor receptor Kit (KIT, Homo sapiens, UniProt P10721) — remaining activity: 90.4%.

Study 4 — read-out: enzyme activity; action: inhibitor; concentration: 77 µM; relative to: untreated
Target: DNA polymerase theta, ATPase domain (POLQ, Homo sapiens, UniProt O75417)
Chain of UniProt O75417 (whole entry, unmodified, looked up): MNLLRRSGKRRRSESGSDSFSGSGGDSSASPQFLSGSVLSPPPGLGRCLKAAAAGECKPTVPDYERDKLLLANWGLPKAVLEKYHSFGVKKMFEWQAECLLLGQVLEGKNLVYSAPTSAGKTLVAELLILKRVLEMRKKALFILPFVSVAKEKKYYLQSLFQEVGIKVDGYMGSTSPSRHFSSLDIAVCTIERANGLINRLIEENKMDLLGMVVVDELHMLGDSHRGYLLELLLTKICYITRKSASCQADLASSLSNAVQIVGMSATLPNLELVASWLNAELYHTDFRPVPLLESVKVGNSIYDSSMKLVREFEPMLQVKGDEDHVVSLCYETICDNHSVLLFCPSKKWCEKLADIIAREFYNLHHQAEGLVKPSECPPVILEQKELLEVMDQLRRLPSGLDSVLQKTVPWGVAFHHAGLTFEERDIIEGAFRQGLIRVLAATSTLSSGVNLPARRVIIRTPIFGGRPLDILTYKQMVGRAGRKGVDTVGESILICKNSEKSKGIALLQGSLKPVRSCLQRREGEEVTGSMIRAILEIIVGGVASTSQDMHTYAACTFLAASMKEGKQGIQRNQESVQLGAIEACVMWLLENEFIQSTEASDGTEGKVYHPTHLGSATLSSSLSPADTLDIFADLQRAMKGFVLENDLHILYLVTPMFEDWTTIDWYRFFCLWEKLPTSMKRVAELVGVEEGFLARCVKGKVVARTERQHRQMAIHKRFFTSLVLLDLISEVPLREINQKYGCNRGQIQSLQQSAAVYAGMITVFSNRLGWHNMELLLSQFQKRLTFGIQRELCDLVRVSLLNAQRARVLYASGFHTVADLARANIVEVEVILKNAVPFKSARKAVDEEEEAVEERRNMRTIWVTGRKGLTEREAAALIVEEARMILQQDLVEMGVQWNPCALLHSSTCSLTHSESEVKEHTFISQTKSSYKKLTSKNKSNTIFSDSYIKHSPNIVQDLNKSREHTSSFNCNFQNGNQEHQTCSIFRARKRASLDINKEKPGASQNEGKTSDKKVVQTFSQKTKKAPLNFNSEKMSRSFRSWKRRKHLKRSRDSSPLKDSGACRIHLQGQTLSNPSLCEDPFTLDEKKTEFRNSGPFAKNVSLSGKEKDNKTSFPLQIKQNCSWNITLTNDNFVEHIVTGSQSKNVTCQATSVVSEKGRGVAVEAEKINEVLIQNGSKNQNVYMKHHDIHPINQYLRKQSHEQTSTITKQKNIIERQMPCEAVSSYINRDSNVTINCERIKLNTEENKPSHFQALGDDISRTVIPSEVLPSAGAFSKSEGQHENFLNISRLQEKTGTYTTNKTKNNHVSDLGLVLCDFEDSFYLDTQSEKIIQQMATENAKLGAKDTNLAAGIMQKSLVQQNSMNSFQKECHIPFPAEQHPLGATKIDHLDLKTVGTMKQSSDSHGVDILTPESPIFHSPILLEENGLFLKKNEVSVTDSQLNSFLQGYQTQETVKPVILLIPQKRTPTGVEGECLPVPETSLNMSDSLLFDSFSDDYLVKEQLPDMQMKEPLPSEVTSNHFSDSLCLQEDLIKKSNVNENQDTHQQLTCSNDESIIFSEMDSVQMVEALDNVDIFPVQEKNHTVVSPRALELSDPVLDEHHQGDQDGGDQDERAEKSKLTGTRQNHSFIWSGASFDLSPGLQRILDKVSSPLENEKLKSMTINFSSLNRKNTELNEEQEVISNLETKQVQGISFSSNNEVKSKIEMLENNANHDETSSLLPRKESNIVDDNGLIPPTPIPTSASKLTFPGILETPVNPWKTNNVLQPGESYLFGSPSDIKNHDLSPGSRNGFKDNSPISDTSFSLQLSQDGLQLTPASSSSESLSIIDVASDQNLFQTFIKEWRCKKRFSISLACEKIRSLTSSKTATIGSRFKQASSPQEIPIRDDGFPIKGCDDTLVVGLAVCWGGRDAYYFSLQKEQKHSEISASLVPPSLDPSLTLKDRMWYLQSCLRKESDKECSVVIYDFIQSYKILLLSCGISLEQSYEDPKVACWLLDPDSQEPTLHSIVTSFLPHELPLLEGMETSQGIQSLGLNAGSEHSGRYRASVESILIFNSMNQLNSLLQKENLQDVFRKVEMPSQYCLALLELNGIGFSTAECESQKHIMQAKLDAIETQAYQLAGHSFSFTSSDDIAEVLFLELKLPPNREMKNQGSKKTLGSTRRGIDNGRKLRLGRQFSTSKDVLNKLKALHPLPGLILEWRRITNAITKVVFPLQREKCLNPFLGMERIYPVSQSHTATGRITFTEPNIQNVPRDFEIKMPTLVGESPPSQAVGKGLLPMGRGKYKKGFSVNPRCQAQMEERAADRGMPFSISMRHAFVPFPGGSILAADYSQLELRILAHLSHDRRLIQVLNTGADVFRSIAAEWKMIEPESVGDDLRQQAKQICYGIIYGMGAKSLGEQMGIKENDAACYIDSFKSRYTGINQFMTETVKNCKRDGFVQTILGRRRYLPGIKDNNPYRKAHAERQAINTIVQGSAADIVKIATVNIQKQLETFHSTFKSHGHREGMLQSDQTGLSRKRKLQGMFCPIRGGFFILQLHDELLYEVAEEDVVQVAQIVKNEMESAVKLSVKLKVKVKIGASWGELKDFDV
With `NC[C@H](O)c1ccc(O)c(O)c1` the remaining activity was 92.7%.
With `CC(NCCC(c1ccccc1)c1ccccc1)c1ccccc1` (stereo not drawn) the remaining activity was 95.9%.
`CN(CCCOc1ccc(Cc2ccccc2)cc1)CCC(=O)O` gave a remaining activity of 102%.
`NCc1ccc(S(N)(=O)=O)cc1` gave a remaining activity of 98.5%.
The remaining activity of `NC(=O)c1cc[n+](CC2=C(C(=O)[O-])N3C(=O)[C@@H](NC(=O)Cc4cccs4)[C@H]3SC2)cc1` is reported as 100%.
The remaining activity of `COc1cc(C(=O)NS(=O)(=O)c2ccccc2C)ccc1Cc1cn(C)c2ccc(NC(=O)OC3CCCC3)cc12` is reported as 83.9%.
The remaining activity of `CCOC(=O)[C@H](CCc1ccccc1)N[C@H]1CCc2ccccc2N(CC(=O)O)C1=O` is reported as 97.2%.
`Fc1ccc2[nH]c(CN3CCN(c4ccccn4)CC3)cc2c1` has a remaining activity of 95.4%.
For `C[C@H]1C[C@H]2[C@@H]3CCC4=CC(=O)C=C[C@]4(C)[C@H]3C(=O)C[C@]2(C)[C@@]1(O)C(=O)CO`, the remaining activity was 95.5%.
`O=C1OC(CN2CCOCC2)CN1/N=C/c1ccc([N+](=O)[O-])o1` (stereo not drawn) gave a remaining activity of 101%.
The remaining activity of `Oc1ccc(O)cc1` is reported as 115%.
For `Nc1cccc2c1CN(C1CCC(=O)NC1=O)C2=O` (stereo not drawn), the remaining activity was 99.3%.

Some of these lines once more (study 1):
The remaining binding was 97% (Ephrin type-B receptor 1 (EPHB1, Homo sapiens, UniProt P54762)).
Epidermal growth factor receptor (EGFR, Homo sapiens, UniProt P00533, L861Q) — remaining binding: 100%.
Serine/threonine-protein kinase LATS2 (LATS2, Homo sapiens, UniProt Q9NRM7) — remaining binding: 100%.
The remaining binding was 100% (Cyclin-dependent kinase-like 5 (CDKL5, Homo sapiens, UniProt O76039)).
The remaining binding was 100% (Tyrosine-protein kinase ABL1, phosphorylated (ABL1, Homo sapiens, UniProt P00519, M351T)).
Phosphatidylinositol 4,5-bisphosphate 3-kinase catalytic subunit alpha isoform (PIK3CA, Homo sapiens, UniProt P42336, H1047Y) — remaining binding: 78%.
Serine/threonine-protein kinase TAO1 (TAOK1, Homo sapiens, UniProt Q7L7X3) — remaining binding: 91%.
For Mast/stem cell growth factor receptor Kit (KIT, Homo sapiens, UniProt P10721, D816V): remaining binding read 100%.
It gave 88% for remaining binding (Protein kinase C delta type (PRKCD, Homo sapiens, UniProt Q05655)).
The remaining binding was 91% (Uncharacterized serine/threonine-protein kinase SBK3 (SBK3, Homo sapiens, UniProt P0C264)).
It gave 94% for remaining binding (RAC-alpha serine/threonine-protein kinase (AKT1, Homo sapiens, UniProt P31749)).
